Published values from different studies.
A part holds a random share of what one study measured.

Study 1
Target: Sal-like protein 4, full length isoform B (SALL4, Homo sapiens, UniProt Q9UJQ4-2, residues 1-616)
Technique: universal PBM
Form: double-stranded DNA, one strand shown
Sample: in vitro
Tested at: not given
Setting: 8-mer, flanks averaged, mean of replicates
Reading: higher = stronger binding
Target sequence (chain): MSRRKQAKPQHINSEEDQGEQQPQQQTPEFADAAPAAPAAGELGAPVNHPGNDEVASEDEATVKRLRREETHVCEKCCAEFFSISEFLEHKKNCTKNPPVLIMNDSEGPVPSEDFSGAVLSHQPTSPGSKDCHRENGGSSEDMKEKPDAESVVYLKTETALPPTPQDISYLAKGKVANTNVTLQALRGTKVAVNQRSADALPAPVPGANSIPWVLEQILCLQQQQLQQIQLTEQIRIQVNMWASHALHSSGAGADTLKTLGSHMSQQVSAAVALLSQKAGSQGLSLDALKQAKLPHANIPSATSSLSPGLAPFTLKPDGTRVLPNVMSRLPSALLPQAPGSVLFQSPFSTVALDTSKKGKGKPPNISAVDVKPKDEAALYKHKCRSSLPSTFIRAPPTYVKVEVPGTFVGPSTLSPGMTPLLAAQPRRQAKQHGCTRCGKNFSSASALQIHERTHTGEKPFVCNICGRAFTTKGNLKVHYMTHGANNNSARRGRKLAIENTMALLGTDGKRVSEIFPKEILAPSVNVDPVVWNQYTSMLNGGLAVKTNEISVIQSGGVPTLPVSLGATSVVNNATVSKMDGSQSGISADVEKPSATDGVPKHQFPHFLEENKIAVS
Strand	E-score
CCACACGA	-0.0659
TAAACAGA	0.191
ATTACGTA	0.314
AATCATAC	0.274
ACGGGTGC	-0.18
AGACATAG	0.137
ATCTAGCG	-0.00448
GGTATTCA	0.136
GGTCTCTA	-0.0768
AATGCCAT	0.146
ACACTGGC	-0.128
CCTCTTTA	0.0907
CCCACCAA	-0.169
TAGCTAAA	0.144
GCGGTCAA	-0.0696
CCTTTTAA	0.15
CATATCAA	0.336
CCGCGAGC	-0.327
ACCAGATA	0.241
AATCTTAA	0.13

Study 2
Target: RING finger protein unkempt homolog, zinc fingers 1-6, GST-SBP tag (UNK, Homo sapiens, UniProt Q9C0B0, residues 30-357)
Technique: RNA Bind-n-Seq
Form: RNA
Sample: in vitro
Tested at: not given
Setting: RNA with constant flanks, human-mouse chimeric sites, ends assumed
Relative to: input RNA pool
Reading: higher = stronger binding
Constant ends, left off below: GGGAGUUCUACAGUCCGACGAUC … CAACAGAGGAUUGAGCAUCA
Residues (chain): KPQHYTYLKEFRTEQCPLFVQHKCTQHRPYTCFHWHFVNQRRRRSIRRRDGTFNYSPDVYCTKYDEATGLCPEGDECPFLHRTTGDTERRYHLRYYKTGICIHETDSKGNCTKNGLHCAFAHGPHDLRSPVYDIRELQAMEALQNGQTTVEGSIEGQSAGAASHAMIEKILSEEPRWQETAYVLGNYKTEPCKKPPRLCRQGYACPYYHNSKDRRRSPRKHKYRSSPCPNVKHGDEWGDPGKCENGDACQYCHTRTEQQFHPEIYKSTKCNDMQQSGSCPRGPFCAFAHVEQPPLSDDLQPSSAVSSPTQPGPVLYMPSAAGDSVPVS
Strand	bound/input enrichment
GAGUCGAGCAAACUUGAAACAAUUCGUUAUCUUGCAGAGCUUCGGUGCACUUGCUUGGCGAUAGCAUUGGGGUUUUAUAGGUUCUGGAAGGAGAACUGACGAUGAUGUCCUGCUGUGUGC	0.192 ratio
ACAGUUAUAUUGUUGAGUUUCAUUUUCAUAUAUUCUUAUGGUGUCUGCUUGCCUGUGUCUUUUAGUAAAAUAAAAUAAGCCUUUGAAAAUAUUUUAGCAUGGUAUUUAACAUUUUCUAAA	2.68 ratio
UCCUGGUCGUGUCCCAGUGCAGGACGAUGUGAACAAAUCGAAGACAUGGACCCUCUAUUGUAGUUCUUGAUUCUCGAAAUGUGCUAUUAUUGUUUGUCUUUUUUUUUUUUUUUUUAAAGA	0.908 ratio
CAGCGCCGAGGCCGCGGUUUCCCCCUGGGCCUCCCCAGCAGCAGCCAUGGGCAUCAAAUUUUUAGAAGUUAUUAAACCAUUCUGUGCAGUUCUACCAGAAAUUCAGAAACCGGAAAGGAA	6.89 ratio
ACAGUUAUAUUGUUGAGUUUCAUUUUCAUAUAUUCUUGUAGUGUCUGCUUGCCUGUGUCUUUUAGUAAAAUAAGACUAGCCUUUGAAAAUAUUUUAGCAUGGUAUUUAACAUUUUCUAAA	10.4 ratio
CACACACUCUUCUGCGGGACCCUCAUCUUGCAGGCCCGGGCCUAUGUGGGACCGCACGUCCUGGCAGUGGUGACCCGGACAGGGUUCUGCACGGCAAAAGGGGGCCUGGUGAGCUCCAUC	0.0525 ratio
AGAUUCCCCCUCCUGAGGCCUUCUCCAAAGUUGGAGUCUCUUACAGAUGCCUCAUCCCCUGUUAGCGUUUUAGUUUGGACCACACAACCUUGGACAAUUCCCGCCAACCAGGCAAUUUGC	1.23 ratio
ACCUCCCAGGCCUGGGACACCCCACCCCCGCUUUUUGGAAAGUUUUUGGCGUUUCUUUUCCUUCCCCAUACAAAGUGGUUUUUACCACCCCCGCAAGGGUCUAUCGAAGGGCUUGACGGA	0.404 ratio
CUGGCCUGGCCCUCCCCAGGGGCCUCCUUUCGUAUAGUCACUGCUUCUGCAUCAGAUACUUUCAGCUCCAAGUCCUGGCAGGGUGGGGCACCCAUUUCAGGCAGAAGGUUUUGGUACCCU	0.277 ratio
CAGCCUCAGAGCCCUGACUUCCUGGAUAUUACCAACCCUAAAGCGGUAUUAGAAAACGCAUUGAGAAACUUCGCCUGUCUGACGACUGGAGAUGUGAUUGCUAUCAACUACAAUGAGAAG	0.349 ratio
GAGCGUCUUGCCCGCACCGGGAUCAUAGUGACCACUAGUGAGGCUGUCCUCCUACAGCUGGUGGCUGACAAAGACCACCCGAAGUUCAAGGAAAUUCAGAAUCUAAUUAAGGCGAGUGCC	0.115 ratio

Study 3
Target: Centromere-binding protein 1, full length, N-terminal tag (CBF1, Saccharomyces cerevisiae, UniProt P17106, residues 1-351)
UniProt P17106, sequence (whole entry, looked up): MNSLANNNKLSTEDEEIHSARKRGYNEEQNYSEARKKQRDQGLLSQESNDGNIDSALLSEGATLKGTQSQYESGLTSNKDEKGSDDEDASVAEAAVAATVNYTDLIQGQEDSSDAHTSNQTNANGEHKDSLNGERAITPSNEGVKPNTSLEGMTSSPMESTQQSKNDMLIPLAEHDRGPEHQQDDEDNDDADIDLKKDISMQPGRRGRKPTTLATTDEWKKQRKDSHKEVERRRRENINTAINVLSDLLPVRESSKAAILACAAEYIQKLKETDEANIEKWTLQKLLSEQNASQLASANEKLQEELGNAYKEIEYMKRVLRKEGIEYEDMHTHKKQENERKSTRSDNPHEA
Technique: protein-binding microarray
Form: double-stranded DNA, one strand shown
Sample: in vitro
Tested at: 0.8 µM
Setting: whole 60-bp probe, no competitor
Reading: higher = stronger binding
Constant ends, left off below: … GTCTTGATTCGCTTGACGCTGCTG
Strand	fluorescence intensity [a.u.]
GAAAAAACATAAAGCAACGTGGAATATGTCACATAG	536
CTAAGAAGAAACACGCACGTGTACCCAAAAATATTC	4800
GAACTTTATGAGGGTAACATCAATTCAAGAAGGTAG	559
CTAACGCTTTTCGATCACATCGAATCCCTTCGGTTC	530
GAATTTCAATCTTGCATCACCATTACCAGCACGTAG	545
GAACTAGCTGAACATCAGCTCAATCGGACATAATAG	502
CTAGCTTTAATGAAACATGTGAAGTGTTTCGCATTC	650
CTATCTCTGGCCGATCACGCGCCATTGTCCCTCTTC	1440
GAAAATCCTTTTGATGTTACCCCGCCTGTGGGCTAG	479
GAATCCTTCCGCACACACGCAATTAGCTGCCGATAG	510
CTACCTGAGATTCCCGACATCAGTAAGACATAGTTC	518
CTAACAAAGTTGGGTCACGTTTCTCGCAATTATTTC	3930
CCTAACTACTATATGTACGTGATATAGCTTCGTACA	654
CTATACACATACACATTCGTGCATACATTCATTTTC	545
CTAGAATGAATAGGTCATGAGAAAATGCATATTTTC	544
CTAATGTAATAGCCAGACGTGATTCCCCTAAACTTC	543
GAAATGTCAGATCGACGTGACATGTAACATTAGTAG	721
GAACCTGCTTGAAAGCACATGATATCACCAGACTAG	1290
CTAAATTAACTTCATCATGATCATTAATTTCATTTC	585
GAAGATGTATACAGGCACGCTCGCACACTCACATAG	532
GAAGATACATAATTTCAGACCACTTAATCTCATTAG	513
GAATATTATGTATGTGATGTCAAGATGTAAAAATAG	616
GAAACTTTTTCGTTTAACGTGACGCATGGTGCGTAG	1300
GAATTCTGTTCTCTTCACATGCGTTAGGTATAGTAG	600
CTATAGTAGGAATATCACGTTTAACGATGCCCCTTC	767

Study 4
Target: RNA binding protein fox-1 homolog 2, RRM domain, GST-SBP tag (RBFOX2, Homo sapiens, UniProt O43251-10, residues 100-194)
Technique: RNA Bind-n-Seq
Form: RNA
Sample: in vitro
Tested at: 365 nM
Setting: natural RNA segment, single round, ends assumed
Relative to: no-protein control
Reading: higher = stronger binding
Constant ends, left off below: GGGAGUUCUACAGUCCGACGAUC … UGGAAUUCUCGGGUGCCAA
Target sequence (chain): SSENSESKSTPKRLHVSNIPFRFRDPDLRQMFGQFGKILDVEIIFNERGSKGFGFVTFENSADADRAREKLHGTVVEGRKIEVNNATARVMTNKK
Strand	RBNS enrichment (R)
CGUCUGUGUGUAACUCACCCAGAGCAGAUCUGUGAGUCUCGAUGUGCUUUGUAAUCUCUGCUUGAGUGUUGCCCAUACUGGGCUGUGGCUUUGAAGGUCAUUUGCACAAG	0.287
UGAGACUUCCCGCCGGCAGCUGUGCGCACCAAAGACUCGGGAGAACUGGAAAGGCUGUCUGGGGUCUUCUGACUGCAGGGGAAGGAUGUACUUUCCAAACAAAUGAUACA	0.456
AGAAUCUAACAGGUAUGACACAUUCAGUUAUUCUAACAGGGCACAGUACUGUGCUAUAUGUAGCCGCCUUUACAGAUGUUAUUAACCUAUAGUAGUUUACUAUUAACUAG	0.326
ACCGCUGCACUAAGGACUCACGGCCCAGCGUCCACAAGACUGAGGCCCUGUCCCUGCUCAGAGAACAGAUCCGGAGCAGGUGGUCUGGUCAGUCAGGAUGGAACAGUGCU	0.246
GCGGCGUGCCAAUCUGCGGGUCCCCUGCGGCCCCUGCUGCCGCUGCGCUGUCCCGGCCGCAAGAGCGGGGCCGCCCCGCCGAGGUUUGUAGCAGCCGGGAUGUGACCCUC	2.04
ACUCUCCUUUGAUAUUAUGUGGCUUUUAUUUCAGUGCCAUACAUGUUAUUGUUUUCAACCUAGAAACCUUUAUCCCUGCUUAUCUGAAACUUCCCAACUUCCCUGUUCUU	0.875
CACACUGCAGCUGAGGCCCCAGGUGGCAGCCAUGGAUCAUGUAGACUUCCAGAUGGUCUCCCGAACCGCCUGGCUCUGCCGGCGCCCUCCUCACGUCAGGAGCAAGCAGC	0.217
AUGUUUACUUUUUUUGUAUUGAUCACUUUUUUGCACUCCUUCUUUGUUUUCAAUAUUGUAUUCAGCCUAUUGUAGGAGGGGGAUGUGGCGUUUCAACUCAUAUAAUACAG	0.855
UGGGAAUUGUGCCUAUUUAGAUUGCCCCUCCAGUUAAAUACACAUGUAAUCCAAGCCAGAGAUAAGAUGGAAGAACAUUUUUUUUUCAAGUUCACUUGGCCAGUAACUUA	1
UUUUUUUUUGUCUCAUGUCACAGAUGACUGUUUCGCACAAACACAGCAUAGUGGAAGAAAAAAUUUCAGAAGCAAAGUAGCCAAGCACAUGUUAGGAUGGCCACGAAUGC	4.88
UCUUCAAGAUUUAGAGUGGGUUAACCAGGUCAUUACAUCUUAAUUUAAUAACAAGCAUUACUGUAGAGUGAUUGUGUAUAGAUCUGUUAGCUGUCAGGGUGUGUUUUUUU	1
AAAGGUUAUUUGCUCCCGAUUAUAUGAUUCAAGUGUUAUAAGUUUUAGCUUGAACUACUUUGCAGUAAUUUAUUUGACAGAUCUCUAUUCUAUAAAUGUGUAAUGUGAUG	0.943

Some of these lines once more (study 4):
Strand	RBNS enrichment (R)
GCGGCGUGCCAAUCUGCGGGUCCCCUGCGGCCCCUGCUGCCGCUGCGCUGUCCCGGCCGCAAGAGCGGGGCCGCCCCGCCGAGGUUUGUAGCAGCCGGGAUGUGACCCUC	2.04
AGAAUCUAACAGGUAUGACACAUUCAGUUAUUCUAACAGGGCACAGUACUGUGCUAUAUGUAGCCGCCUUUACAGAUGUUAUUAACCUAUAGUAGUUUACUAUUAACUAG	0.326
AAAGGUUAUUUGCUCCCGAUUAUAUGAUUCAAGUGUUAUAAGUUUUAGCUUGAACUACUUUGCAGUAAUUUAUUUGACAGAUCUCUAUUCUAUAAAUGUGUAAUGUGAUG	0.943
AUGUUUACUUUUUUUGUAUUGAUCACUUUUUUGCACUCCUUCUUUGUUUUCAAUAUUGUAUUCAGCCUAUUGUAGGAGGGGGAUGUGGCGUUUCAACUCAUAUAAUACAG	0.855
UUUUUUUUUGUCUCAUGUCACAGAUGACUGUUUCGCACAAACACAGCAUAGUGGAAGAAAAAAUUUCAGAAGCAAAGUAGCCAAGCACAUGUUAGGAUGGCCACGAAUGC	4.88
UCUUCAAGAUUUAGAGUGGGUUAACCAGGUCAUUACAUCUUAAUUUAAUAACAAGCAUUACUGUAGAGUGAUUGUGUAUAGAUCUGUUAGCUGUCAGGGUGUGUUUUUUU	1
CACACUGCAGCUGAGGCCCCAGGUGGCAGCCAUGGAUCAUGUAGACUUCCAGAUGGUCUCCCGAACCGCCUGGCUCUGCCGGCGCCCUCCUCACGUCAGGAGCAAGCAGC	0.217
